Results gathered from unrelated publications.
Numbered parts are unrelated; each lists some results of a single study. Substitutions count along the parent as printed.

Set 1 — target: FOSL2, bZIP domain (human); technique: DHFR protein complementation; matrix: yeast; reference: wild-type JUN-FOS pair; reading: higher = stronger binding
Notes: single substitutions, most at no-binding floor
Parent: JUN, bZIP domain (human); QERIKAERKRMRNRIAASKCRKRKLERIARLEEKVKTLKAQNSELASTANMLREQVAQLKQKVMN; partner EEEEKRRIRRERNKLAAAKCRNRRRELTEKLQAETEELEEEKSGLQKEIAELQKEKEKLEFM
Change	binding fitness
Q55K	-0.00452 natural log
Q55P	-1.25 natural log
R30K	-0.0371 natural log
M51I	0.0957 natural log
E32D	-0.011 natural log
L52E	-1.09 natural log
E54T	-0.032 natural log
T48C	-0.0349 natural log
M51P	-1.27 natural log
K36I	0.0425 natural log
L38C	-0.65 natural log
L38D	-1.06 natural log
A46V	-0.028 natural log
A49H	-0.415 natural log
T48M	0.124 natural log
A57N	-0.00529 natural log
R30M	0.105 natural log
S47M	0.0372 natural log
A57H	0.054 natural log
S47N	0.11 natural log
E44R	-0.0368 natural log
K39G	-0.521 natural log
Q41A	-0.0121 natural log
A46Y	-0.0868 natural log
A29V	-0.163 natural log

Set 2 — technique: protein-binding microarray; molecule type: double-stranded DNA, one strand shown; matrix: in vitro; tested at: 0.8 µM; notes: whole 60-bp probe, no competitor; reading: higher = stronger binding; all sequences stand within: … GTCTTGATTCGCTTGACGCTGCTG
Target: Centromere-binding protein 1, full length, N-terminal tag (CBF1, Saccharomyces cerevisiae, UniProt P17106, residues 1-351)
UniProt P17106, sequence (whole entry, looked up): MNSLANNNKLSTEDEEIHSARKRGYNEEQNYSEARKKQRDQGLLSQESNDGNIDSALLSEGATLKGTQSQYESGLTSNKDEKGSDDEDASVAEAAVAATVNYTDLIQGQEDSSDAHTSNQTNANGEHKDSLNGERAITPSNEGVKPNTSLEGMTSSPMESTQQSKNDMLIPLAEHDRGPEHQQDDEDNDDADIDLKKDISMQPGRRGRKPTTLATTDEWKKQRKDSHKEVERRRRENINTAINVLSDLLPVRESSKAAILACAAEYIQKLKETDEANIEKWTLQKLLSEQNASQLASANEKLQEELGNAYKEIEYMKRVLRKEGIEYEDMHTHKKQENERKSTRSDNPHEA
Oligonucleotide	fluorescence intensity
CTATCAAACCGAAATCAGCAGACATTTTATTGTTTC	663 a.u.
GAACACAATAACAGCATCATCACTATAAAGAAATAG	607 a.u.
TGTACGAAGCTATGACACGTGTGTATAGTAGTTAGG	4260 a.u.
GAAACCGCTTTAAATCTGATGTTCTGCGCTTTCTAG	522 a.u.
CTAGCAGTTGGCCAGCACGTTCAGAACCCCGTATTC	518 a.u.
GAAGTAATAGTGGATGACGTGAATAGCAACAAATAG	610 a.u.
CTAAGGAAAGAAAGAAACGTGGGAAAAACAGGGTTC	507 a.u.
GAAGTTATACTAATCTTGGTGATGGAATGAGTATAG	524 a.u.
GAAATTCAGCATTATCACGCCCTTCCACCAACGTAG	587 a.u.
CTATTGTTACCTCGTCACCTGTTATCGGTTGAATTC	1220 a.u.
CTACTGATTAACAAGCACGTAACGGAGACCAAATTC	573 a.u.
GAAATTATCACTCATCACCATGAACATTCAGTATAG	565 a.u.
GAAAAGAAGTCTTTACACGTTGGCCACCGACACTAG	513 a.u.

Set 3 — technique: DHFR PCA, deep sequencing; matrix: yeast; together with: (+)-ABA 200 µM; reference: wild-type fitted maximum; reading: higher = stronger binding
Target: ABI1, truncated, D143A, DHFR fusion (Arabidopsis thaliana)
Notes: methotrexate growth selection, single substitutions
Parent: PYL1, truncated, DHFR fusion (Arabidopsis thaliana); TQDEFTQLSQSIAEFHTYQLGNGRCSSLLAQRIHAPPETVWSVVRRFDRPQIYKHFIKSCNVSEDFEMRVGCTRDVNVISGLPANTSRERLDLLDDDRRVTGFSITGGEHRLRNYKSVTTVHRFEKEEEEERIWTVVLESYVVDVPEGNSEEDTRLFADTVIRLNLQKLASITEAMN; partner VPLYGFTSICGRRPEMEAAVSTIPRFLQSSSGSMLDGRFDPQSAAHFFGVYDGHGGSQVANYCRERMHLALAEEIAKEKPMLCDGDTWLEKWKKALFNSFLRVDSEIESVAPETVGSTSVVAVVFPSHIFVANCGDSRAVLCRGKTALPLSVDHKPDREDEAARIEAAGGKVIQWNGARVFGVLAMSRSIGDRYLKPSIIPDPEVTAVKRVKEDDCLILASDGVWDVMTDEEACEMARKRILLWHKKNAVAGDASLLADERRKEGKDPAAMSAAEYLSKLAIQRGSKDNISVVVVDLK
Change	relative binding score
I172H	93%
P146K	-0.377%
H34N	102%
R45W	-17%
S63V	101%
I57M	70.2%
H55P	107%
E129Q	98.2%
Q2R	99.5%
K168D	47.9%
H110F	3.16%
I79C	107%
F66Y	93.5%
R49K	101%
P37T	75.9%
D97G	96.3%

Set 4 — technique: protein binding microarray; molecule type: double-stranded DNA, one strand shown; matrix: in vitro; tested at: not given; reference: not given; reading: higher = stronger binding
Target: Histone acetyltransferase KAT6A, both winged helices, GST fusion (KAT6A, Homo sapiens, UniProt Q92794, residues 1-181)
Notes: 8-mer, flanks averaged, mean of 2 arrays, mostly near background
Residues (chain): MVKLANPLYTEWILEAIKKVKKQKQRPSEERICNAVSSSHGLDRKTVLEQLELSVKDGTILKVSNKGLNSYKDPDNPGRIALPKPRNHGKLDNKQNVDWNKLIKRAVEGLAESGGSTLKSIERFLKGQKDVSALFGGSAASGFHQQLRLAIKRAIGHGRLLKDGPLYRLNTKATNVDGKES
Oligonucleotide	E-score
AGTTCAAT	-0.135
CCATCGGA	-0.00757
CGCCCTCA	-0.0873
CTATGGCA	-0.0903
CGGAGATC	0.0492
CTAACGAC	-0.0987
GAGCCGGA	0.0874
ACCACGAT	-0.243
AGGTGTTC	-0.107
CGAAGGTA	-0.103
ACCCTAAG	-0.206
GATACGCA	0.108
GTCTTCAC	0.00314
ATGAGTGG	-0.145
CATAGCAC	-0.0488
ACCTCCTC	-0.207
GCCTCCAA	-0.0997
TAAACGCA	0.0748
GTGTTAGA	-0.12
AGCTGCAA	-0.102
CAGAGAGG	-0.253
GCTATGTA	-0.0561
AGCTCGTA	-0.0577
GACCAAGA	-0.154
AGTGGTAG	-0.0789

Set 5 — technique: protein-binding microarray; molecule type: double-stranded DNA, one strand shown; matrix: in vitro; tested at: 2540 nM top; notes: 60-bp whole probe; together with: salmon DNA 0.4 mg/ml; reference: random background probes; reading: higher = stronger binding; all sequences stand within: GCCTAGCAC … GTCTTGATTCGCTTGACGCTGCTG
Target: Interferon regulatory factor 3, full length, phosphomimetic (IRF3, Homo sapiens, UniProt Q14653, residues 1-427, S386D/S396D/S398D/S402D/T404D/S405D)
UniProt Q14653, sequence (whole entry, unmodified, looked up): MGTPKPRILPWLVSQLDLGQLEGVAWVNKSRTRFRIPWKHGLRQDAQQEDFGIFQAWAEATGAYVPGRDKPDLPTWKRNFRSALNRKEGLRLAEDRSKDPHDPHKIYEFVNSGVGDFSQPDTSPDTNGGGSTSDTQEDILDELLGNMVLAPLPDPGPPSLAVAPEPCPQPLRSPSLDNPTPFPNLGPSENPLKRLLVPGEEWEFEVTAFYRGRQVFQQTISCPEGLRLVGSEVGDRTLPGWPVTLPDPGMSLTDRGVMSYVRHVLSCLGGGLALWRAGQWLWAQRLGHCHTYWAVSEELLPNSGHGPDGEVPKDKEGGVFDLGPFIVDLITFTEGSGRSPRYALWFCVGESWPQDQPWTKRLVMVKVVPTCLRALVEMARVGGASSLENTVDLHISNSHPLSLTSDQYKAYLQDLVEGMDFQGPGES
Oligonucleotide	fitted relative affinity [z-score]
CTAGGTTTCGGTTTCGGTTAGTGCTAG	11.6
CTAGTAGCCTAAGGCTACCGGTGCTAG	0.794
GACGGGCTGGGTCTCGGGACGTGCTAG	-1.11
TTAGGGCTCGGTATCGGTTAGTGCTAG	1.49
GACGGTATCGGTATCAGGACGTGCTAG	4.61
GACGGACTGGGTCTCGGGTCGTGCTAG	-0.547
TTAGGACTGGTCACTGGGTTAGTGCTA	-0.823
TCCATGCTGGCTTTTATGCGGTGCTAG	-0.783
TTAGATTTCGGGTGTCGATTAGTGCTA	1.02
TCATCTCCCAAGTCTTGTACTGTGCTA	0.897
GACGGTCTCTTTCTCCTGACGTGCTAG	2.09
TTAGATCTCATTTTCGATTAGTGCTAG	2.37
TCATGTTTGGTCCTGAAACTGTGCTAG	0.189
GCCTTTTATTTGAAAGAAATGTGCTAG	2.03
CCATTTTGGTTTTCTCTATTGGTGCTA	2.56
GACGGTATCCGACTGGGGACGTGCTAG	2.06
GGGAATTTAGAAAATGGAAATGTGCTA	-0.105

Set 6 — target: CCNE1, cyclin fold, Cln2 fusion (human); technique: yeast growth competition, sequencing; matrix: yeast; notes: strong parent motif; reference: not given; reading: higher = stronger binding
Parent: CDC25A docking peptide (human); PPHRRRLLFACSP
Change	normalised enrichment score
PPHRRRLIFACSP [L8I]	2.22
PAHRRRLLFACSP [P2A]	0.938
PPHRRRLLFATSP [C11T]	1.37
PPHRKRLLLACSP [R5K F9L]	0.315
PPHRRRLLFACGP [S12G]	1.4
PPHMRRLLFACSP [R4M]	0.807
PPHRRRLLAACSP [F9A]	0.98
PPHRRRLLFACSN [P13N]	1.64
PPHRRRLHFACSP [L8H]	1.25
PPHRRRLLFACTP [S12T]	1.05
PPHRRVLLFACSP [R6V]	1.39
LPHRRRLLFACSP [P1L]	1.07
PTHRRRLLFACSP [P2T]	1.86
PPNRRRLLFACSP [H3N]	0.771
PPHRRRLLFACSC [P13C]	1.94
PPHRRRQLFACSP [L7Q]	0.142
PPHRRRLLFACPP [S12P]	1.51
PPHRRRLLFACWP [S12W]	1.73
PHHRRRLLFACSP [P2H]	1.84
PPHRRRLLFLCSP [A10L]	1.27
PPHRRRLLYACSP [F9Y]	0.529
PPHRRRLLFACKP [S12K]	0.425
PPHRRRLLSACSP [F9S]	0.956
PPHRRRLLFAWSP [C11W]	1.55
PPHRRRLLFACSS [P13S]	1.1

Excerpt of the above (set 6):
Change	normalised enrichment score
PAHRRRLLFACSP [P2A]	0.938
PPHRRRLLFATSP [C11T]	1.37
PPHRKRLLLACSP [R5K F9L]	0.315
PPHRRRLLFACGP [S12G]	1.4
PPHMRRLLFACSP [R4M]	0.807
PPHRRRLLAACSP [F9A]	0.98
PPHRRRLLFACSN [P13N]	1.64
PPHRRRLHFACSP [L8H]	1.25
PPHRRRLLFACTP [S12T]	1.05
PPHRRVLLFACSP [R6V]	1.39
